Measurements collected from several papers.
Each line is one published result; not all experiments were run side by side. Values joined by “and” are separate records of one study, mostly repeats; a detail may differ.
Target: Dual specificity tyrosine-phosphorylation-regulated kinase 1A (DYRK1A, Homo sapiens, UniProt Q13627)

Compound = Cc1cccc(-c2ccc3nc(NC(=O)C4CCCCC4)nn3c2)c1; assay = enzyme activity, Dundee kinase panel; conditions = 10 µM; measurement = remaining activity; value = 10%
Compound = O=C(Nc1cc(-c2ccnc3[nH]ccc23)c(Cl)cn1)[C@H]1CCC[C@@H](NC(=O)C(F)(F)F)C1; assay = binding, competition with immobilised ligand; conditions = 0.1 µM; measurement = remaining binding; value = 18%
Compound = Cc1cccc(O[C@H]2CCC[C@@H](C(C)CNCc3ccncc3)C2)c1 (relative stereo); assay = cell-free assay; conditions = 1 µM; measurement = inhibition; value = 4%
Compound = CNC(=O)C1CCN(c2cc(C)c(F)cc2NC(=O)c2ccc(-c3cc(O)ccc3C)c(C)c2)CC1; assay = binding, competition with immobilised ligand; conditions = 1 µM; measurement = remaining binding; value = 79%
Compound = O=C1NCc2nc3c(ccc4ccccc43)cc21; assay = enzyme activity, inhibitor, ADP detection; conditions = 10 µM; measurement = inhibition; value = 91.2%
Compound = O=C(Cc1ccc(OCc2ccccc2)cc1)NC1(C(=O)O)CCN(C(=O)c2ccc(-c3cccc(Cl)c3)cc2)CC1; assay = enzyme activity, inhibitor; conditions = 10 µM; measurement = activity vs control; value = 94%
Compound = CN1CC[C@@H](COc2cnc(C#N)cc2-c2ccn3nc(NC(=O)C4CC4)cc3c2)C1; assay = enzyme activity, inhibitor; conditions = 1 µM; measurement = inhibition; value = 20%
Compound = C=CC(=O)N1CCCC(n2c(=O)c3ncccc3n(Cc3ccc(Oc4ccccc4)cc3)c2=O)C1 (stereo not drawn); assay = cell-free assay, competition with immobilised ligand; conditions = 1 µM; measurement = remaining binding; value = 66%
Compound = C=CC(=O)N1Cc2nc(-c3cc(-c4cc(Cl)cnc4Cl)c(F)cc3F)n(-c3ccncn3)c2C1; assay = cell-free assay; conditions = 1 µM; measurement = inhibition; value = 7.2%
Compound = Cc1ccc(C)c(-c2ccc3nc(NC(=O)C4CCCCC4)nn3c2)c1; assay = enzyme activity, Dundee kinase panel; conditions = 10 µM; measurement = remaining activity; value = 15%
Compound = Nc1ncc(-c2cc(-c3cnn(CC(F)(F)F)c3)ncc2F)nc1C(=O)NC1CNCC(F)C1 (stereo not drawn); assay = enzyme activity; conditions = 1 µM; how to read = reference: DMSO control; measurement = remaining activity; value = 82%
Compound = c1ccc2c(Nc3cc(C4CCC4)[nH]n3)nc(Nc3ccc4nc[nH]c4c3)nc2c1; assay = enzyme activity, inhibitor; conditions = 0.25 µM; measurement = remaining activity; value = 1%
Compound = CCn1cc(C(=O)O)c(=O)c2c(N)c(F)c(NC3CCCCC3)cc21; assay = kinase activity; conditions = 0.1 µM, added: ATP at Km; measurement = inhibition; value = 13.3%
Compound = Nc1nc(Nc2ccccc2)sc1C(=O)c1ccccc1; assay = enzyme activity, inhibitor; conditions = 10 µM; measurement = remaining activity; value = 12%
Compound = NC(=O)[C@@H](O)C[C@H]1CCc2sc3ncnc(O[C@H]4CC[C@H](N5CCOCC5)CC4)c3c21; assay = enzyme activity, inhibitor; conditions = 10 µM; measurement = inhibition; value = 94%
Compound = CNC(=O)C[C@H](Cc1ccc(C#N)cc1)NC(=O)c1cc(-c2ccc(CN[C@H](C)c3ccc(C)cc3)o2)ccc1Cl; assay = enzyme activity, inhibitor; conditions = 1 µM; measurement = activity vs control; value = 110%
Compound = C=CC(=O)Nc1cccc(-c2cnc3[nH]cc(C(=O)NC(C)(C)C)c3n2)c1; assay = kinase activity; conditions = 0.1 µM; measurement = inhibition; value = 12% and 9%
Compound = Cc1cnc2nc1Nc1cccc(c1)COC/C=C/COCc1cc(ccc1OCCN1CCOCC1)N2; assay = binding; conditions = 0.1 µM; measurement = remaining binding; value = 65%
